Assay results gathered from unrelated publications.
Compare with care: the assays were run in different laboratories.
Target: Histone deacetylase 1 (HDAC1, Homo sapiens, UniProt Q13547)
UniProt Q13547, sequence (whole entry, looked up): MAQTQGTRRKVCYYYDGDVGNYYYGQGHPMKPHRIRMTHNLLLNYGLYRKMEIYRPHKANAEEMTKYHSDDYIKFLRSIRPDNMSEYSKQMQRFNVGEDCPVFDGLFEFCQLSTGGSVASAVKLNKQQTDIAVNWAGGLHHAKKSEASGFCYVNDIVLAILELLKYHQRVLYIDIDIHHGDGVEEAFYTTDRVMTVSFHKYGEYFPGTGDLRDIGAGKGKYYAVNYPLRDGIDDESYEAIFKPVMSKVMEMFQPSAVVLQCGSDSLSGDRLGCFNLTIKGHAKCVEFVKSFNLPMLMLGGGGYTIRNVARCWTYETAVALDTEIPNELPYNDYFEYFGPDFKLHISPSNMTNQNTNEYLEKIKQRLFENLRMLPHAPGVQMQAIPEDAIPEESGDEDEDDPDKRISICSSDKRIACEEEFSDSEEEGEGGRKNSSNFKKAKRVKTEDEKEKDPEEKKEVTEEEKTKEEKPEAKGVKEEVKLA

For `CC[C@H](C)[C@@H]1NC(=O)[C@H](Cc2ccccc2C(F)(F)F)NC(=O)CCSCc2cccc(n2)CSCCCNC(=O)[C@H](CCCCCC(=O)NO)NC1=O`, the Ki was 2 nM (enzyme activity, inhibitor, fluorescence).
The Ki of `CC(C)c1ccc(OS(=O)(=O)Oc2cncc(C(=O)NO)c2)cc1` is reported as 438 nM (enzyme activity, inhibitor, fluorescence).
With `O=C(CCc1ccc(CNC(C(=O)OC2CCCC2)C2CCCCC2)cn1)NO` (centres unmarked) the IC50 was 676 nM (enzyme activity, inhibitor).
The Kd of `COc1ccc(C(=O)NO)cc1NC(=O)c1ccc(-c2ccccc2)cc1` is reported as > 30200 nM (inhibitor, competition pulldown; SW620 and MV4-11 lysate; 1 h).
With `C=CC[C@@H]1NC(=O)CCSCc2nc3ccccc3nc2CSC/C=C/CNC(=O)[C@H](CCCCCC(=O)N(O)CCCCCC)NC1=O` the Ki was 230 nM (enzyme activity, inhibitor, fluorescence).
For `Cc1nc2c(F)cc(-c3nc(Nc4ccc(NC(=O)CCCCCCCC(=O)NO)cc4)ncc3F)cc2n1C(C)C`, the IC50 was 30 nM (enzyme activity, inhibitor).
`Cc1cc(C(C)(C)C)ccc1OS(=O)(=O)Oc1cccc(/C=C/C(=O)NO)c1` has a Ki of 677 nM (enzyme activity, inhibitor, fluorescence).
`CCCCCCC(=O)Nc1ccc(Nc2ncc(F)c(-c3cc(F)c4nc(C)n(C(C)C)c4c3)n2)cc1` gave an IC50 of > 1000 nM (enzyme activity, inhibitor).
For `O=C(NO)c1cnc(NC2(c3cccc(F)c3)CCCCC2)nc1`, the Kd was > 30200 nM (cell-free assay).
The IC50 of `C[S@@](=N)(=O)c1ccc(C(=O)Nc2cc(-c3ccc(F)cc3)ccc2N)cc1` is reported as 100 nM (target engagement in cells, BRET).
With `Cc1nc2c(F)cc(-c3nc(Nc4ccc(CC(=O)NCCCCCCC(=O)NO)cc4)ncc3F)cc2n1C(C)C` the IC50 was 12 nM (enzyme activity, inhibitor).
